Results collected from several papers.
A part holds a random share of what one study measured. pIC50: −log10 of the molar value.
UniProt Q9Y2K2, sequence (whole entry, looked up): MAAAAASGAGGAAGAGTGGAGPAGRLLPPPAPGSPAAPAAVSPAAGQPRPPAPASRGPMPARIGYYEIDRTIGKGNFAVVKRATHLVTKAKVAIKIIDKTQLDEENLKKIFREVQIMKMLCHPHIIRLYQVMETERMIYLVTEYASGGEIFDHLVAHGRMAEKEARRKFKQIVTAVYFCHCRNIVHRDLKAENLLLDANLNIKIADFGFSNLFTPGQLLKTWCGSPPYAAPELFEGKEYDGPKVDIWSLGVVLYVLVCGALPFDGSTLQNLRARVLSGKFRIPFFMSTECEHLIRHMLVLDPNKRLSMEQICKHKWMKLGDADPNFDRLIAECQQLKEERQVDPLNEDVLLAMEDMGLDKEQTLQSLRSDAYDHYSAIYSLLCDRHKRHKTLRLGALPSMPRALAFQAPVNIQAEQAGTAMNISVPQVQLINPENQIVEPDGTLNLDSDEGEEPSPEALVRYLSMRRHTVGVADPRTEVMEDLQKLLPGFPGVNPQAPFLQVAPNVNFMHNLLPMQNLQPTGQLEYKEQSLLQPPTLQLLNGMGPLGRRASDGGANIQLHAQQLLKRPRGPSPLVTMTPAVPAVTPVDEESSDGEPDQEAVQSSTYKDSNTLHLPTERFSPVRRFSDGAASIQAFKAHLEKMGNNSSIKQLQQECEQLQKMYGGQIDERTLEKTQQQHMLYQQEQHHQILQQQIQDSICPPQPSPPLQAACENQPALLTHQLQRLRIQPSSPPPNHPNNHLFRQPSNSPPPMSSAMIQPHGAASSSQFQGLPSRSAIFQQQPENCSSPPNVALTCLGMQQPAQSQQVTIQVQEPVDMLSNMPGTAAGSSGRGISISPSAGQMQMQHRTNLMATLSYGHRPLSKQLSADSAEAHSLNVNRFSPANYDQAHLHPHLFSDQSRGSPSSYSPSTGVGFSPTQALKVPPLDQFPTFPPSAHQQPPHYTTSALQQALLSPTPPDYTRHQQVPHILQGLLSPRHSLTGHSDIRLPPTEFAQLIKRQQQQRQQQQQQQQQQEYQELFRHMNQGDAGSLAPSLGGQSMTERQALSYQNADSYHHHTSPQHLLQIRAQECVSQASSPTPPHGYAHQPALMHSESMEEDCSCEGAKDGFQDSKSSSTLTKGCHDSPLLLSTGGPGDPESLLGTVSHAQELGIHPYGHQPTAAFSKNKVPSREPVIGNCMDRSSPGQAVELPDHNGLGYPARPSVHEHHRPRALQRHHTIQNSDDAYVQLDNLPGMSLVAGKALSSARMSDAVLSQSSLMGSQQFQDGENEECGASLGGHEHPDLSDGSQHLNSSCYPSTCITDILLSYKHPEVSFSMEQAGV
UniProt O15264, sequence (whole entry, looked up): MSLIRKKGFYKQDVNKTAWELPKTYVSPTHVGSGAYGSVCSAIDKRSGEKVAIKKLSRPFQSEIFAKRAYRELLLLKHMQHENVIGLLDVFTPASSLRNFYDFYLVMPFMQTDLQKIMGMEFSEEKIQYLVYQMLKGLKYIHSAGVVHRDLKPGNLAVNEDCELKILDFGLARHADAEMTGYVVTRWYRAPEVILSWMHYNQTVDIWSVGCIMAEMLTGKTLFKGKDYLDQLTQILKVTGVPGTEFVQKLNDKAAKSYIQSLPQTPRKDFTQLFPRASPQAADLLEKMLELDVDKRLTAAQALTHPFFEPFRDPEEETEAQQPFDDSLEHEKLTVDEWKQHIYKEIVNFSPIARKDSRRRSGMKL
UniProt Q9Y243, sequence (whole entry, looked up): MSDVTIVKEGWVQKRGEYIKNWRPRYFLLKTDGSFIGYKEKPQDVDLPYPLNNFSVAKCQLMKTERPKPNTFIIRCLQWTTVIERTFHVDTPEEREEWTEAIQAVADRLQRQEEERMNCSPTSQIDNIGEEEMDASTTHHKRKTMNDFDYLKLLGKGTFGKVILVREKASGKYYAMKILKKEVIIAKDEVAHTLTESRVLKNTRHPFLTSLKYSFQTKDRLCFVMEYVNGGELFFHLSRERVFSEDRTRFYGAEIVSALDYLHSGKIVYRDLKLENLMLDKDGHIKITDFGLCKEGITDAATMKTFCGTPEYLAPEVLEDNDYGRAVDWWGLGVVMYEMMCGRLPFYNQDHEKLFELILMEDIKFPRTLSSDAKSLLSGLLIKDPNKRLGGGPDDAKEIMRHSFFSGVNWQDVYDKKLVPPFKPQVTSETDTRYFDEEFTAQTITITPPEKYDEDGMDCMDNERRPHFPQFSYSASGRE
UniProt O96013, sequence (whole entry, looked up): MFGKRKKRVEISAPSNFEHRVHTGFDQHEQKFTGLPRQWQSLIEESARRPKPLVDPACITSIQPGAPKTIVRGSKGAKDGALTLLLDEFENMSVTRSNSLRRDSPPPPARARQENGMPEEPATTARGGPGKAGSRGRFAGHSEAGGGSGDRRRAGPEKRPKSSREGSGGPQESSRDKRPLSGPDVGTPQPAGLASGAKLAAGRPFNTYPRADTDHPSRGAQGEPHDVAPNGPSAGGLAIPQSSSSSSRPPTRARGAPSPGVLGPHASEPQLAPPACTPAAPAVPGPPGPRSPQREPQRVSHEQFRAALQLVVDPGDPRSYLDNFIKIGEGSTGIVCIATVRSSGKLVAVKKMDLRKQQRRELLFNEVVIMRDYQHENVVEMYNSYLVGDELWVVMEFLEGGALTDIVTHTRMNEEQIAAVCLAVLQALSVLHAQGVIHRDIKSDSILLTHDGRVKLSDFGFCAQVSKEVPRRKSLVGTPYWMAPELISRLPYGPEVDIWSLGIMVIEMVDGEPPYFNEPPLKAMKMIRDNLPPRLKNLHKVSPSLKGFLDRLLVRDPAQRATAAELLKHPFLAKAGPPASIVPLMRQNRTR
UniProt Q8WTQ7, sequence (whole entry, looked up): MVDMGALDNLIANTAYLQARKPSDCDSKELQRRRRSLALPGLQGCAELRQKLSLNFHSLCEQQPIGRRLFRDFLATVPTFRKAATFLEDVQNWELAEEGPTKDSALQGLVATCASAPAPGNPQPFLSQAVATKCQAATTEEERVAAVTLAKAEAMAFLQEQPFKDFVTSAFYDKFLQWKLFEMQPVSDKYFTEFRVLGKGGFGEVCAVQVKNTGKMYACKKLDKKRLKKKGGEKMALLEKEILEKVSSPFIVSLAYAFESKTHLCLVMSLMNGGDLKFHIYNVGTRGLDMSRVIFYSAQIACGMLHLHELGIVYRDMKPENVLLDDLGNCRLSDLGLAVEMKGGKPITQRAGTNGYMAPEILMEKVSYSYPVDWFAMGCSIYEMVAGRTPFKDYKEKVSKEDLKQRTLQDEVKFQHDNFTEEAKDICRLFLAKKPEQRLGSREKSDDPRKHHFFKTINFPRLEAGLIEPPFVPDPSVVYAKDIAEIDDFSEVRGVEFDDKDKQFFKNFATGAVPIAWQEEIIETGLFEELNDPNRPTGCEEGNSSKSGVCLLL
UniProt O75821, sequence (whole entry, looked up): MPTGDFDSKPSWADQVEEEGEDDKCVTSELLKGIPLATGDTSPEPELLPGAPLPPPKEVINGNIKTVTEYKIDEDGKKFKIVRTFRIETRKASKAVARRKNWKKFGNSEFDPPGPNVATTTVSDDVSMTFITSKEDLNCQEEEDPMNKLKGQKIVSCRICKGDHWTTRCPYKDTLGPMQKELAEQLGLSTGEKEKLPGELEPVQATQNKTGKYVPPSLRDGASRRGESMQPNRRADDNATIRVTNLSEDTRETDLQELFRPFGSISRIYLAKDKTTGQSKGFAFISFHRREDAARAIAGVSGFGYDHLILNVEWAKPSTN
UniProt Q9BXA7, sequence (whole entry, looked up): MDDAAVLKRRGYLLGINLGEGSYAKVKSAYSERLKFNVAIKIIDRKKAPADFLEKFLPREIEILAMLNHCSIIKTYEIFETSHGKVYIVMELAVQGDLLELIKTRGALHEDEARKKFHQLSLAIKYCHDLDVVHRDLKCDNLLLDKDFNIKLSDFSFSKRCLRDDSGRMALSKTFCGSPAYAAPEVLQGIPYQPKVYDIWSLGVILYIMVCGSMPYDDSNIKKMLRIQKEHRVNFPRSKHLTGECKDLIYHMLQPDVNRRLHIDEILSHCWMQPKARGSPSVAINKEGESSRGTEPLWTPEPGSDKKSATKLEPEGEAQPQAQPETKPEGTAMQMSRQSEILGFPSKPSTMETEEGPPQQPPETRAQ

Set 1 — observed: enzyme activity; mode: inhibitor; tested at: 0.5 µM; reference: control
Target: Macrophage colony-stimulating factor 1 receptor (CSF1R, Homo sapiens, UniProt P07333)
UniProt P07333, sequence (whole entry, looked up): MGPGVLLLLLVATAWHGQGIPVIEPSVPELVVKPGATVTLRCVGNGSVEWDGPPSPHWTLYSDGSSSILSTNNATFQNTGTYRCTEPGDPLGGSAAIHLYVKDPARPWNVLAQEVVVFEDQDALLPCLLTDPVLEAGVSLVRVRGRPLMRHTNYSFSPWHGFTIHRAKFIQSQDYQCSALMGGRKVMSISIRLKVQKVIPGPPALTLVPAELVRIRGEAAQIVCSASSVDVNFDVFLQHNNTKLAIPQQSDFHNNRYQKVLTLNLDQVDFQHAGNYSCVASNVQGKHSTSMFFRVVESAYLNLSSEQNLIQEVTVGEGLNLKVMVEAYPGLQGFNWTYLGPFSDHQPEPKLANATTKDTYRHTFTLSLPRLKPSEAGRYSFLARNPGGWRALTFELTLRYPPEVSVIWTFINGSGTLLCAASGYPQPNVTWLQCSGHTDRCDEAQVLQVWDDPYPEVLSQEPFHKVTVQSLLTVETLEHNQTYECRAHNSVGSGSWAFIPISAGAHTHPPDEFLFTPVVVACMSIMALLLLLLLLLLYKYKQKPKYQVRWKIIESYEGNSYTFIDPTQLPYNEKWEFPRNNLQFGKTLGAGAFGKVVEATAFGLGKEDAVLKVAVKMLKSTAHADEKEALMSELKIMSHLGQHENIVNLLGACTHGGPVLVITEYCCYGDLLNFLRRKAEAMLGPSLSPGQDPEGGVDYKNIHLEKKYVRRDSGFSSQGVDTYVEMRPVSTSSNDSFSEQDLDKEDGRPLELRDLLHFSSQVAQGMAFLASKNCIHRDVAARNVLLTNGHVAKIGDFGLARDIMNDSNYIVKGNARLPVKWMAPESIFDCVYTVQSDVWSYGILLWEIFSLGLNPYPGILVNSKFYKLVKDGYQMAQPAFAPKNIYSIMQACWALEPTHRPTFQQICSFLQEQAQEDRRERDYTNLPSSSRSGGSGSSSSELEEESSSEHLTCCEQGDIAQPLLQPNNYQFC
| Compound | remaining activity |
| --- | --- |
| Cc1cc2ncc(-c3ccccc3)nc2cc1C | 82.1% |
| CCN(CC)CCNC(=O)c1c(C)[nH]c(/C=C2\C(=O)Nc3ccc(F)cc32)c1C | 7.28% |
| Cn1nc2c3c(cccc31)C(=O)c1ccccc1-2 | 97% |
| C[C@@H]1CCN(C(=O)CC#N)C[C@@H]1N(C)c1ncnc2[nH]ccc12 | 101% |
| O=c1cc(-c2cccc3c2Sc2ccccc2S3)oc(N2CCOCC2)c1 | 91.9% |

Set 2 — cell line: A-375; tested at: 100 µM; time: 60 h
| Compound | viability [%] |
| --- | --- |
| CCOc1nc2cccc(C(=O)O)c2n1Cc1ccc(-c2ccccc2-c2nnn[nH]2)cc1 | 101 |
| O=C(CCCCCCC(=O)Nc1ccccc1)NO | 5.26 |
| CCN1CCN(C(=O)N[C@@H](C(=O)N[C@@H]2C(=O)N3[C@@H]2SC(C)(C)[C@@H]3C(=O)O)c2ccccc2)C(=O)C1=O | 104 |
| C1N2CN3CN1CN(C2)C3 | 106 |

Set 3
Structure (SMILES): CC(C)[C@H](CO)Nc1nc(Nc2cccc(Cl)c2)c2ncn(C(C)C)c2n1
| target | observed | method | matrix | pIC50 |
| --- | --- | --- | --- | --- |
| Trypanosoma brucei protein Tb427tmp.02.2040 | binding | kinobead competition | Trypanosoma brucei lysate | < 5.00 |
| Trypanosoma brucei protein Tb427tmp.01.2460 | binding | kinobead competition | Trypanosoma brucei lysate | < 5.00 |
| Trypanosoma brucei kinase Tb427tmp.160.1200 | binding | kinobead competition | Trypanosoma brucei lysate | < 5.00 |
| Trypanosoma brucei kinase Tb427tmp.01.3110 | binding | kinobead competition | Trypanosoma brucei lysate | < 5.00 |
| Eukaryotic translation initiation factor 3 subunit G (Homo sapiens, UniProt O75821) | – | – | – | < 5.00 |

Set 4 — observed: cell-free assay; method: competition with immobilised ligand; tested at: 1 µM
Compound: CN(C)C(=O)Cn1cc(-c2nc([C@@](C)(c3ccc(-c4cnc(N)nc4)cc3)C3CC3)no2)cn1
| target | remaining binding [%] |
| --- | --- |
| Testis-specific serine/threonine-protein kinase 1 (TSSK1B, Homo sapiens, UniProt Q9BXA7) | 100 |
| Proto-oncogene tyrosine-protein kinase receptor Ret (RET, Homo sapiens, UniProt P07949) | 94 |
| NUAK family SNF1-like kinase 2 (NUAK2, Homo sapiens, UniProt Q9H093) | 83 |
| Mitogen-activated protein kinase 12 (MAPK12, Homo sapiens, UniProt P53778) | 94 |
| Serine/threonine-protein kinase SIK3 (SIK3, Homo sapiens, UniProt Q9Y2K2) | 70 |
| Cyclin-dependent kinase 16 (CDK16, Homo sapiens, UniProt Q00536) | 86 |
| Rhodopsin kinase GRK7 (GRK7, Homo sapiens, UniProt Q8WTQ7) | 0 |
| Mitogen-activated protein kinase 13 (MAPK13, Homo sapiens, UniProt O15264) | 93 |
| Tyrosine-protein kinase ITK/TSK (ITK, Homo sapiens, UniProt Q08881) | 99 |
| Serine/threonine-protein kinase PAK 6 (PAK6, Homo sapiens, UniProt Q9NQU5) | 100 |
| Serine/threonine-protein kinase PAK 4 (PAK4, Homo sapiens, UniProt O96013) | 96 |
| RAC-gamma serine/threonine-protein kinase (AKT3, Homo sapiens, UniProt Q9Y243) | 100 |
| Tyrosine-protein kinase ABL1, phosphorylated (ABL1, Homo sapiens, UniProt P00519, T315I) | 90 |
| Ribosomal protein S6 kinase alpha-5, N-terminal kinase domain (RPS6KA5, Homo sapiens, UniProt O75582) | 93 |
| Macrophage-stimulating protein receptor (MST1R, Homo sapiens, UniProt Q04912) | 79 |

Further values, each from its own experiment
| Compound | method | species | dose | measurement | result |
| --- | --- | --- | --- | --- | --- |
| CC(C)n1cnc(-c2ccc(F)cc2)c1-c1ncc(C(=O)Nc2ccc(N3CCN(C)CC3)cc2)[nH]1 | phase 2a clinical trial | patients with idiopathic pulmonary fibrosis | 60 mg once daily | patients with chronic gastritis TEAE | 0% |
